# Experimental data gathered from unrelated publications.
# Protocols differ between the studies behind these lines. Several values in a cell are separate wells, animals, samples, runs or records.
# CDK8: Cyclin-dependent kinase 8 (CDK8, Homo sapiens, UniProt P49336)
# Sequence of UniProt P49336 (whole entry, looked up): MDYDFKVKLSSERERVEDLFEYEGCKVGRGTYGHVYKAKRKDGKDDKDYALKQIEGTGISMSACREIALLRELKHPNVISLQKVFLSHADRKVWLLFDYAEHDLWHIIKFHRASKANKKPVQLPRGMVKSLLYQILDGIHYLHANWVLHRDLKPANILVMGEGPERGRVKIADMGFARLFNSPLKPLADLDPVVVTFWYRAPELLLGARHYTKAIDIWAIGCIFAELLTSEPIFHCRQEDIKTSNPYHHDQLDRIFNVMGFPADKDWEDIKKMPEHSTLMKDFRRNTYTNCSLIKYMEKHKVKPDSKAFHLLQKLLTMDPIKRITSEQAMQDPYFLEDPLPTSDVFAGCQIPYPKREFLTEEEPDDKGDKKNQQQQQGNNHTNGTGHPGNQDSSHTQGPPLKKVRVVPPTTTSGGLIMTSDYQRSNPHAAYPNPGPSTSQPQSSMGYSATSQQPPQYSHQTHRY
# CDK8 with cyclin C: Cyclin-dependent kinase 8, with cyclin C (CDK8, Homo sapiens, UniProt P49336)
SMILES,target,assay,conditions,scale,endpoint,result
C[C@]1(O)CCCN(c2nc(Nc3ccc(S(=O)(=O)N[C@H]4CC[C@H](CN5CCN(c6ccc(C7CCC(=O)NC7=O)cc6F)CC5)CC4)cc3)ncc2C(F)(F)F)C1 (stereo partly shown),CDK8,"binding, competition with immobilised ligand",1 µM,,remaining binding,76%
Cc1ccc(-c2c(/C=C(\C#N)C(=O)NC(C)C)n(CCCO)c3ncnc(N)c23)cc1,CDK8,"cell-free assay, competition with immobilised ligand",1 µM,,remaining binding,80%
C[C@H]1CN(C(=O)c2cn(-c3ccnc(N)n3)c3cc(C#CC4(O)CCCCC4)ccc23)CCN1,CDK8 with cyclin C,"cell-free assay, TR-FRET",1 µM,,inhibition,0%
COCC12C(=O)NC3C4(C(OC)CC1O)C1CC5(O)C(OC)C(O)C(OC(C)=O)(C1C5OC(=O)c1ccccc1)C3(O)C(OC)C24 (stereo not shown),CDK8 with cyclin C,"kinase activity, inhibitor, ProQinase kinase profiling",25 µM,relative to: control,remaining activity,91% and 114%
Nc1ncc2c(n1)-c1c([nH]c3ccc(C4=CCOCC4)cc13)CCC2,CDK8,"binding, competition with immobilised ligand",1 µM,,remaining binding,96%
COc1cc(Nc2nccc(-c3cnn4nc(OC)ccc34)n2)cc(C(F)(F)F)c1,CDK8,"binding, competition with immobilised ligand",1 µM,,remaining binding,100%
CCN1CCN(Cc2ccc(NC(=O)c3ccc(C)c(NC(=O)c4cncc(-c5cccs5)c4)c3)cc2C(F)(F)F)CC1,CDK8,"binding, competition with immobilised ligand",1 µM,,remaining binding,5.6%
CNC1C[S+]2CC[S+]3CC[S+](C1)[Ru-4]321([N]=C=S)[n]2c3ccc(OC)cc3c3c4c(c5cc(F)c[n+]1c5c32)C(=O)NC4=O (stereo not shown),CDK8,KinomeScan,0.1 µM,relative to: untreated,remaining binding,73%
Cc1cnc2nc1Nc1cccc(c1)COC/C=C/COCc1cc(ccc1OCCN1CCOCC1)N2,CDK8,,concentration not given,,percent of control,83%
CC(C)=CC1OC(C)(C)C2C=C3C(=O)C(Cl)=CC(O)C3C3C(O)C4OC4C(=O)C132 (stereo not shown),CDK8,"cell-free assay, competition with immobilised ligand",10 µM,,remaining binding,100%
